{"data": "Measurements gathered from unrelated publications", "note": "Parts stem from different laboratories: compare values within a part only."}
{"data": "Block 1", "target": "Fragile X messenger ribonucleoprotein 1, C-terminal low-complexity region (Fmr1, Mus musculus, UniProt P35922)", "technique": "RNA Bind-n-Seq", "form": "RNA", "sample": "in vitro", "concentration": "200 nM", "setting": "whole 134-nt RNA, ends assumed", "added": "150 mM KCl", "relative to": "input library", "direction": "higher = stronger binding", "all sequences stand within": "GGGAGUUCUACAGUCCGACGAUC … UGGAAUUCUCGGGUGUCAAGG"}
{"Strand": "GUUAAUUCCACCAUCCCCAUCACAGCAGAAGUUUUCAAGAAGCAUGGAGUGUACAACCCCAACAAAAUCUUCGGCGUGACGACCCUGGAC", "log2 enrichment": 0.555}
{"Strand": "GGGUCUGUUGCAAAUAAAUUCUAUGUUCACAAUGAUAUCUUCAGAUACCAAGAUGAGGUCUUUGGUGGGUUUGUCACUGAGCCUCAGGAG", "log2 enrichment": -1.42}
{"Strand": "UCAAGUCCUGUGCUACACAUCGUAUGUACCGAAUCGGGUGGGAAAGGGUUUGGGAAAGUAUUAUGUUACGCCGUUCGGAUCUGCACUUCC", "log2 enrichment": 1.08}
{"Strand": "GUCCUGUGCUACACAUCGUAUGUACCGAAUCGGGGUUUUUUUGGGGUGGGGAAAGGGGAAAGUAUUAUGUUACGCCGUUCGGAUCUGCAC", "log2 enrichment": 0.586}
{"Strand": "GUCCUGUGCUACACAUCGUAUGUACCGAAUCGGGUUUGGGAAAAAGGGUUUUUUUGGGAAAGUAUUAUGUUACGCCGUUCGGAUCUGCAC", "log2 enrichment": 0.0773}
{"Strand": "CAAGUCCUGUGCUACACAUCGUAUGUACCGAAUCGGGUGGGUUUUUUUGGGUGGGAAAGUAUUAUGUUACGCCGUUCGGAUCUGCACUUC", "log2 enrichment": 0.663}
{"Strand": "UAACUUUAGAGGAGGAUCUGAUGGAUAUGGCAGUGGACGUGGAUUUGGGGAUGGCUAUAAUGGGUAUGGAGGAGGACCUGCAGGUGGCAA", "log2 enrichment": 0.0296}
{"Strand": "UCAAGUCCUGUGCUACACAUCGUAUGUACCGAAUCGGGUUUGGUUUGGGUUUGGGAAAGUAUUAUGUUACGCCGUUCGGAUCUGCACUUC", "log2 enrichment": -0.478}
{"Strand": "AAGUCCUGUGCUACACAUCGUAUGUACCGAAUCGGAAAAAGGAAAAAAAGGUUUGGAAAGUAUUAUGUUACGCCGUUCGGAUCUGCACUU", "log2 enrichment": -1.42}
{"Strand": "AGUCCUGUGCUACACAUCGUAUGUACCGAAUCGGGGAAAAGGAAAAGGGAAAAGGGGAAAGUAUUAUGUUACGCCGUUCGGAUCUGCACU", "log2 enrichment": 0.0562}
{"Strand": "UGUGCUACACAUCGUAUGUACCGAAUCGGCCCCCCCGGGGCCCCCCCGGGGCCCCCCCGGGGAAAGUAUUAUGUUACGCCGUUCGGAUCU", "log2 enrichment": -1.93}
{"Strand": "CAAGUCCUGUGCUACACAUCGUAUGUACCGAAUCAAACCCAAAUUUAAAUUUAAAAAAGUAUUAUGUUACGCCGUUCGGAUCUGCACUUC", "log2 enrichment": 0.335}
{"Strand": "CAAGUCCUGUGCUACACAUCGUAUGUACCGAAUCAAACCCAAACCCAAACCCAAAAAAGUAUUAUGUUACGCCGUUCGGAUCUGCACUUC", "log2 enrichment": -0.221}
{"Strand": "GCAGGAAGUAAAAACAAGUGGAAAUGCUUCGGAUAGUGGCAGGGGUGGGGGUUGCUAAGGAAAGGGUGGGAUGGGAGUGGGUAAAGAGUU", "log2 enrichment": 0.508}
{"data": "Block 2", "target": "RING finger protein unkempt homolog, zinc fingers 1-6, GST-SBP tag (UNK, Homo sapiens, UniProt Q9C0B0, residues 30-357)", "technique": "RNA Bind-n-Seq", "form": "RNA", "sample": "in vitro", "concentration": "not given", "setting": "RNA with constant flanks, human and mouse sites, ends assumed", "relative to": "input RNA pool", "direction": "higher = stronger binding", "all sequences stand within": "GGGAGUUCUACAGUCCGACGAUC … CAACAGAGGAUUGAGCAUCA", "Residues (chain)": "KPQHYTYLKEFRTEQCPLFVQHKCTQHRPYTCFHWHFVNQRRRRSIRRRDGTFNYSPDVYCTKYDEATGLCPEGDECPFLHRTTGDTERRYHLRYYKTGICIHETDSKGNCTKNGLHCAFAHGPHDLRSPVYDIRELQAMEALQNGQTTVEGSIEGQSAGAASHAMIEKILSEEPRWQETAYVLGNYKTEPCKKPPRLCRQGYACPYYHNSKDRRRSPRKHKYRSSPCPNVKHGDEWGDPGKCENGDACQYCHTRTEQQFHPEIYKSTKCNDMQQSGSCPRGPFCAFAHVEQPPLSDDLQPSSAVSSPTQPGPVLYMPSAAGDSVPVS"}
{"Strand": "GGGCCUCUGUUCAAUACCGACUAUGACAUCCUUAAAAGCAAUUUGCAGAACUGCAGCAAGUUUAGUGCCAUACAGUGUGCAGCUGCAGUCCCCAGAGCUCCUGCAGAAUCCCCAUCUUCC", "bound/input enrichment": "0.44 ratio"}
{"Strand": "AUGGAUCCUCCAUCAAAGAAUUGUCUUUCUUUUAAUGUCAUUAGUCACCAAGGUUGCAUAAUUAGCAACCUUGUAGUAGCCUGUAGCACAGUGGGAUCUGCAUAUCUUCCGUCUAGUUAC", "bound/input enrichment": "2.82 ratio"}
{"Strand": "GUGUUUCAGAUUUUAAAGUGAUCACGAUUUGGUAGAUUACAGAUAUUUUUUUGUUGUUGUUUUAGUUUUUUCUUUUUCUUUUUUUAAGUAAACAGUCAAGUCAGGUCAAGCAAGACGUUA", "bound/input enrichment": "8.17 ratio"}
{"Strand": "AUCAGGAGGAAAAGAUGUUGAAACAAGAAAACAGAUCGCAGGGUUACAAAAAAGAAUCCAAGACUUAGAAACAGAAAAUAUGGAACUUAAAAAUAAAGUACAAGAUUUGGAAAACCAACU", "bound/input enrichment": "1.2 ratio"}
{"Strand": "CUGGACUUCCACCGCUGUGAGAAGGCAAUGACGGCCAAGGGGGGUGAUGUCUCCGUGUGUGAGUGGUACCGGCGUGUGUACAAGUCCCUCUGUCCCGUGUCAUGGGUCUCAGCCUGGGAU", "bound/input enrichment": "0.173 ratio"}
{"Strand": "GAAGCUCAGCACUUAACAACUGACACCCCAAAAGACGUAGAAAAGGUUUACAAAAUAAUCUAGUUUACGAAGAAAUCUUGUGCUAGAAUACUUUUUAAAGUAUUUUUGAAUACCAUUAAA", "bound/input enrichment": "0.276 ratio"}
{"Strand": "CUGAUCAUCAAUGGUCCCAUAAAGUCAUUCUGCUACCGCCGGCUGCAGUACCUGAGCUCCAAAUUCCAGAUGCACGUUUUGCUCAAUGAGAUGAAGGAGCUCGCUGCUCAGAAGAAAGUG", "bound/input enrichment": "0.0929 ratio"}
{"Strand": "GGCAAAAACCAUUCCAGAAAAGAUGGACUCAGUGAUGAAAGAGGAAGAGAUGACUGUGGAACCUUUGAGGACACAGGGCCCCUUCUCCAGUUUGACUAUAAGGCUGUUGCUGAUCGACUC", "bound/input enrichment": "0.0986 ratio"}
{"Strand": "CGAUAUCUGCCUUGGCUCUACCAUCCUCCCUCUGCAAUGCAGCAAGGACCUAAAGAAUUCAUCGAGUGUGUCUCCCACAUCCGGUUGCUGUCCUGGCUGCUUCUGGGAUCCCUCACGCAU", "bound/input enrichment": "0.3 ratio"}
{"Strand": "CCUGCUGUAUUGUCUGCUCUUGACCAAAGCCAGUCACAGCCUUCAAAAGCAGCAGAAACCCCUGCAGUGGCUUCAUGUUGGAGUGGGCCACAAGUUUCUCCAGAGCAUAAAGAACUAUCU", "bound/input enrichment": "0.168 ratio"}
{"Strand": "GAAUCUUCACCAACCACAUUACUCACUACAAAGAAAAAUAUUGGACGUUUCCAUCCCUAUACCAGAUAUGAAAAUAUAACUUUCAAUUGCUGCAAUCACUGCCAGGGGGAGCUCAUUGCU", "bound/input enrichment": "0.753 ratio"}
{"data": "Block 3", "target": "Histone acetyltransferase KAT6A, winged helix 2, GST fusion (KAT6A, Homo sapiens, UniProt Q92794, residues 85-181)", "technique": "protein binding microarray", "form": "double-stranded DNA, one strand shown", "sample": "in vitro", "concentration": "not given", "setting": "8-mer, flanks averaged, mean of 2 arrays, mostly near background", "relative to": "not given", "direction": "higher = stronger binding", "Target sequence (chain)": "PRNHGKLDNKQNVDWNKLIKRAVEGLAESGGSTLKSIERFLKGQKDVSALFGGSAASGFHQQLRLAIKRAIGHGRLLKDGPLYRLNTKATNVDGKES"}
{"Strand": "TCGCTGAA", "E-score": 0.133}
{"Strand": "AACGACCT", "E-score": -0.0418}
{"Strand": "CACCCCCC", "E-score": -0.093}
{"Strand": "AAATGAAG", "E-score": 0.038}
{"Strand": "CAGTATCG", "E-score": -0.0885}
{"Strand": "ATCCATAG", "E-score": -0.186}
{"Strand": "GAGTCGCA", "E-score": -0.141}
{"Strand": "AGTCTCAG", "E-score": -0.0512}
{"Strand": "TTAGGCAA", "E-score": 0.026}
{"Strand": "TCGCGACA", "E-score": 0.082}
{"Strand": "CGAGTCCG", "E-score": 0.141}
{"Strand": "ATGCAGCA", "E-score": 0.073}
{"Strand": "GTCCAGAA", "E-score": -0.0638}
{"Strand": "GCCCGAGA", "E-score": 0.244}
{"Strand": "ATGTGGCG", "E-score": 0.0224}
{"Strand": "GTCTTGTA", "E-score": -0.0292}
{"Strand": "CAGCTACA", "E-score": -0.133}
{"Strand": "ATCGAAAG", "E-score": 0.00971}
{"Strand": "ACTCTCTC", "E-score": -0.0644}
{"Strand": "AGGCGTCG", "E-score": 0.0856}
{"Strand": "CAGCAGAG", "E-score": 0.111}
{"data": "Block 4", "organism": "Saccharomyces cerevisiae", "effect on": "mating pheromone growth arrest", "technique": "pooled competitive growth deep sequencing", "form": "peptide", "strain": "no Cln2 overexpression", "setting": "peptide tiling library", "direction": "direction not given"}
{"Sequence": "EPRNLLSLFEDTLDPT", "enrichment score": 0.0286}
{"Sequence": "KRCATPVIIDEILPSK", "enrichment score": -0.19}
{"Sequence": "VKRLNFRSEEME", "enrichment score": -0.845}
{"Sequence": "GTPKRCLDLSNLSSGE", "enrichment score": 0.226}
{"Sequence": "RQVRRDLFAF", "enrichment score": -0.498}
{"Sequence": "AKRSLGFLPQPVPL", "enrichment score": -0.862}
{"Sequence": "RTEALEQGGLPKKLIF", "enrichment score": 0.475}
{"Sequence": "YLYLLLTQSLWCRV", "enrichment score": -0.392}
{"Sequence": "GPVKLEFDVSDGAT", "enrichment score": 0.147}
